Measured values pooled from the literature.
Every numbered part comes from another study and shows a few of its results, in no order.

Set 1
Cell line: HEK-293T
Organism: VSV pseudotyped with SARS-CoV-2 spike
Tested at: 10 µM
Time: 16 h
Measurement: pseudovirus infection
O=c1n(CCCN2CCN(c3cccc(Cl)c3)CC2)nc2ccccn12: 67.6%
C=CCN1CC[C@]23c4c5ccc(O)c4O[C@H]2C(=O)CC[C@@]3(O)[C@H]1C5: 106%
O=C1CCc2ccc(OCCCCN3CCN(c4cccc(Cl)c4Cl)CC3)cc2N1: 71%

Set 2
Target: Replicase polyprotein 1ab, main protease (rep, Severe acute respiratory syndrome coronavirus 2, UniProt P0DTD1)
Observed: enzyme activity
Action: inhibitor
Tested at: 20 µM
Setting: hit confirmation
Measurement: inhibition
C=CC(=O)N1CCN(C(=O)CNc2cc(I)c(Cl)cc2O)CC1: 29.1%
Cc1cc(C)cc(N2C(=O)CC(Sc3nnc[nH]3)C2=O)c1 (stereo not shown): 66.2%
CC(C)Nc1cccnc1N1CCN(C(=O)c2cc3cc(NS(C)(=O)=O)ccc3[nH]2)CC1: 86.7%

Set 3
Target: Replicase polyprotein 1ab, nsp13 helicase (rep, Severe acute respiratory syndrome coronavirus 2, UniProt P0DTD1)
Observed: helicase activity
Action: inhibitor
Method: DTT high-content helicase
Organism: SARS-CoV-2
Tested at: 20 µM
Measurement: inhibition
O=c1[nH]nc(Sc2ncc([N+](=O)[O-])s2)n1-c1ccc2c(c1)OCCO2: -5.95%
CCN(CC)C(=S)S: -1.37%
O=C(O)c1ccc(SSc2ccc(C(=O)O)cn2)nc1: -8.02%
O=C(/C=C/c1ccc2ccccc2n1)c1ccncc1: -7.03%
CCC(C)SSc1ncc[nH]1 (stereo not shown): -13.9%
O=[N+]([O-])C=Cc1ccc2c(c1)OCO2: -9.73%
CC(C)N[C@@H]1CCn2c(=O)[nH]c3cccc(c32)[C@H]1O: 11.2%
Oc1c(I)cc(I)c(O)c1I: 0.18%
CC(C)n1nc(C#Cc2ccccc2)c2c(N)ncnc21: -7.22%
O=C(O)c1ccc(N2C(=O)/C(=C\c3ccc(-c4ccc([N+](=O)[O-])cc4)o3)C=C2c2ccccc2)cc1: 28.4%
O=C(O)[C@@H](S)[C@@H](S)C(=O)O: 18.9%
O=Nc1ccc(O)c2ncccc12: -12.4%
O=S(=O)(O)c1ccc(-c2c3nc(c(-c4ccc(S(=O)(=O)O)cc4)c4ccc([nH]4)c(-c4ccc(S(=O)(=O)O)cc4)c4nc(c(-c5ccc(S(=O)(=O)O)cc5)c5ccc2[nH]5)C=C4)C=C3)cc1: 36.9%
O=C1C=CC(=O)C2=C1C1c3ccccc3C2c2ccccc21: -15%

Set 4
Target: TAR DNA-binding protein 43, full length, His tag (TARDBP, Homo sapiens, UniProt Q13148, residues 1-414)
Method: RNA Bind-n-Seq
Form: RNA
Medium: in vitro
Tested at: 20 nM
Setting: 6-mer, flanks averaged, single round
With: 150 mM KCl
Reference: input library
Direction: higher = stronger binding
Measurement: 6-mer enrichment (R)
CGCGGG: 3.8
AGCCUU: 0.661
AUUACU: 0.562
UGACCA: 0.672
AACUCC: 0.672
GGUUUA: 0.809
UUAUAA: 0.746
CGUCAC: 0.669

For quick reference, copied from above (set 3):
O=S(=O)(O)c1ccc(-c2c3nc(c(-c4ccc(S(=O)(=O)O)cc4)c4ccc([nH]4)c(-c4ccc(S(=O)(=O)O)cc4)c4nc(c(-c5ccc(S(=O)(=O)O)cc5)c5ccc2[nH]5)C=C4)C=C3)cc1: 36.9%
O=C1C=CC(=O)C2=C1C1c3ccccc3C2c2ccccc21: -15%
